Measurements collected from several papers.
Each numbered part is a random draw from the data of one study; scales do not carry over between parts. Substitutions count along the parent as printed.

Sample 1
Target: CCNB1, cyclin fold, Cln2 fusion (human)
Method: yeast growth competition, sequencing
Medium: yeast
Notes: strong parent motif
Baseline: not given
Direction: higher = stronger binding
Parent: DBF4 docking peptide (human); DDIVSKLVFDFVE; partner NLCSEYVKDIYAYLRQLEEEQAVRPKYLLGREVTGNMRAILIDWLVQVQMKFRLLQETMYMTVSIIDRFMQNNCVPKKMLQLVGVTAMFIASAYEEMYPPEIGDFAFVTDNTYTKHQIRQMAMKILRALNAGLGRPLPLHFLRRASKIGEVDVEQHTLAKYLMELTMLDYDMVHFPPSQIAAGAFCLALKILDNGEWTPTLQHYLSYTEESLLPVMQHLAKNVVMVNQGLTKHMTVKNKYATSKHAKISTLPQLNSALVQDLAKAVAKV
Under “normalised enrichment score”, `DDIVAKLVFDFVE [S5A]` is recorded as 1.52.
`DDIVSKLVFDFAE [V12A]`: “normalised enrichment score” 1.39.
`DDIVSKAVFDFVE [L7A]` — result for “normalised enrichment score”: -0.367.
Under “normalised enrichment score”, `DDIVSKLVFDFVA [E13A]` is recorded as 0.712.
`DAIVSKLVFDFVE [D2A]`: “normalised enrichment score” 1.58.
`DDIVSALVFDFVE [K6A]`: “normalised enrichment score” 0.285.
`DDIASKLVFDFVE [V4A]`: “normalised enrichment score” 0.487.

Sample 2
Target: Interferon regulatory factor 3, full length, phosphomimetic (IRF3, Homo sapiens, UniProt Q14653, residues 1-427, S386D/S396D/S398D/S402D/T404D/S405D)
Chain of UniProt Q14653 (whole entry, unmodified, looked up): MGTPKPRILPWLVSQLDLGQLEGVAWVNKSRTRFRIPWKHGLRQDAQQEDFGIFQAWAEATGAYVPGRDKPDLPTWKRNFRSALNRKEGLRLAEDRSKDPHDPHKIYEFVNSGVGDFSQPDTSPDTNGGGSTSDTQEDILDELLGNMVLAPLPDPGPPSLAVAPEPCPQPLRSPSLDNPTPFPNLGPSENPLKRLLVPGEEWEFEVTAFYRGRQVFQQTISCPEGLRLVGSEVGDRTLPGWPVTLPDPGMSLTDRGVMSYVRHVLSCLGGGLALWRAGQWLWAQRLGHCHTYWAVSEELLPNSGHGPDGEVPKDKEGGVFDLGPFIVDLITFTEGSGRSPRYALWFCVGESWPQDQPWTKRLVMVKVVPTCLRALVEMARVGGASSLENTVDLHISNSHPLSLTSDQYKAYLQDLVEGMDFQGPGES
Method: protein-binding microarray
Molecule type: double-stranded DNA, one strand shown
Medium: in vitro
Concentration: 2540 nM top
Notes: 60-bp whole probe
With: salmon DNA 0.4 mg/ml
Baseline: random background probes
Direction: higher = stronger binding
Shared flanks, not repeated: GCCTAGCAC … GTCTTGATTCGCTTGACGCTGCTG
`GACGATATCCTTTTCCTGACGTGCTAG` — result for “fitted relative affinity”: 4.64 z-score.
Under “fitted relative affinity”, `GACGAACGGAGTATCGAGACGTGCTAG` is recorded as -0.00376 z-score.
`ACTAGCTTCCATTTTCTGAAGTGCTAG`: “fitted relative affinity” 2.49 z-score.
For `TTAGATCTCAGACGGGATTAGTGCTAG`, “fitted relative affinity” read -0.216 z-score.
Under “fitted relative affinity”, `TCATCTTCCCCTCTCTTACTGTGCTAG` is recorded as 1.98 z-score.
`CTAATATTCTGCTTTGCAATGTGCTAG` — result for “fitted relative affinity”: 1.16 z-score.
`TTAGATCTCAGTTTCGACTAGTGCTAG`: “fitted relative affinity” 1.88 z-score.
`TCATTATCCTATATCTGACTGTGCTAG` — result for “fitted relative affinity”: 2.78 z-score.
Under “fitted relative affinity”, `GACGGTTTCCTTCGCCTGACGTGCTAG` is recorded as 3.72 z-score.
For `GACGGTACCCTTCTCCTGACGTGCTAG`, “fitted relative affinity” read 5.13 z-score.
Under “fitted relative affinity”, `TCAATACTGATTTCCACACTGTGCTAG` is recorded as 0.941 z-score.
`TTAGGTTTCGGTTCCGATTAGTGCTAG` — result for “fitted relative affinity”: 11 z-score.
`GACGATTTCAGTTTCGACACGTGCTAG` — result for “fitted relative affinity”: 4.5 z-score.
`TCAGGACTGGGACTGGGTTAGTGCTAG` — result for “fitted relative affinity”: -0.749 z-score.
Under “fitted relative affinity”, `GACGGACTGGGGTTTTGGGACGTGCTA` is recorded as -0.79 z-score.
`GACGGTTACGGTTTCGGGACGTGCTAG`: “fitted relative affinity” 3.83 z-score.
Under “fitted relative affinity”, `GACGAACTGAGTTTCGAAACGTGCTAG` is recorded as 2.83 z-score.
For `GACGGTATTCTTCTCCTGACGTGCTAG`, “fitted relative affinity” read 1.34 z-score.
Under “fitted relative affinity”, `GACGGACAGGGGTATCGGGACGTGCTA` is recorded as -0.545 z-score.
For `TTAGAACTGAGGTTCGATTAGTGCTAG`, “fitted relative affinity” read -0.195 z-score.
For `TTAGAACTGAGTAGCGATTAGTGCTAG`, “fitted relative affinity” read -0.289 z-score.
`GAAGATTTCGGGTTTCGAGACGTGCTA` — result for “fitted relative affinity”: 2.49 z-score.
Under “fitted relative affinity”, `TTAGGTATCGGGACCGGGTTAGTGCTA` is recorded as 1.07 z-score.

Sample 3
Target: Fragile X messenger ribonucleoprotein 1, C-terminal low-complexity region (Fmr1, Mus musculus, UniProt P35922)
Method: RNA Bind-n-Seq
Molecule type: RNA
Medium: in vitro
Concentration: 200 nM
Notes: whole 134-nt RNA, ends assumed
With: 150 mM KCl
Baseline: input library
Direction: higher = stronger binding
With `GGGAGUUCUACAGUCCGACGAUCACAAGUGGAGGAGAAGAACUUAGAAGAACUAGAGGAGAAAUCUACUACUCCUCCUCCGGCAGAACCUGUUUCUCUGCCACAAGAACCACCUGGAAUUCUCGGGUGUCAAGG` the log2 enrichment was -0.463.
The log2 enrichment of `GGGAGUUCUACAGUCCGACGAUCAAGUCCUGUGCUACACAUCGUAUGUACCGAAUCGGGUUUGGGAAAAAAAGGGUGGGAAAGUAUUAUGUUACGCCGUUCGGAUCUGCACUUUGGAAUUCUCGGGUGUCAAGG` is reported as 0.861.
For `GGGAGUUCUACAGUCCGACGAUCGCAGGAAGUAAAAACAAAUGGAAAUGCUUCGGAUAGUGGCAGGGGUGGGGGUUGCUAAGGAAAGGGUGGGAUGGGGGUGGGUAAAGAGUUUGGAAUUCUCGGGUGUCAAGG`, the log2 enrichment was 0.0317.
`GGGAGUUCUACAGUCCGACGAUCCAAGUCCUGUGCUACACAUCGUAUGUACCGAAUCGGGGUGGGGAGGGGUUUGGGGAAAGUAUUAUGUUACGCCGUUCGGAUCUGCACUUCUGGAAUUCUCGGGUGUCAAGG` gave a log2 enrichment of 1.28.
The log2 enrichment of `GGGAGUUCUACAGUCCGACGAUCUGGCCCUGGUGGCAUGCGGGGAGGAAGAGGUGGCCUCAUGGCUCGUGGUGGUCCCGGUGGAAUGUUCAGAGGUGGCCGUGGUGGAGACAGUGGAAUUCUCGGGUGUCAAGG` is reported as -0.0342.
With `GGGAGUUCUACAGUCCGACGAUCGCAGGAAGUAAAAACAAAUGGAAAUGCUUCGGAUAGUGGCAGGGGUGGGAAAUGCUAAGGAAAGGGUGGGAUGGGAGUGGGUAAAGAGUUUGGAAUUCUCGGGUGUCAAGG` the log2 enrichment was 0.379.
`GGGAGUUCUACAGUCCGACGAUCAGUCCUGUGCUACACAUCGUAUGUACCGAAUCGGGGAAAAGGAAAAGGGGAAAAGGGAAAGUAUUAUGUUACGCCGUUCGGAUCUGCACUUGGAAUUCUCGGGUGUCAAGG` gave a log2 enrichment of 0.0685.
The log2 enrichment of `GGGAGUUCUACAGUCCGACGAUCUAACUUUAGAGGAGGAUCUGAUGGAUAUGGCAGUGGACGUGGAUUUGGGGAUGGCUAUAAUGGGUAUGGAGGAGGACAUGGAGGUGGCAAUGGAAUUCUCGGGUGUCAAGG` is reported as 0.282.
With `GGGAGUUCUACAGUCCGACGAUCCUGUGCUACACAUCGUAUGUACCGAAUCGGGAAAAAAAGGAAAAAAAGGGAAAAAAAGGGGAAAGUAUUAUGUUACGCCGUUCGGAUCUGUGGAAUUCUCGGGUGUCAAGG` the log2 enrichment was -0.884.
With `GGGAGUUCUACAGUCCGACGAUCUCAAGUCCUGUGCUACACAUCGUAUGUACCGAAUCGGUUUGGUGGUUUUUUUGGAAAGUAUUAUGUUACGCCGUUCGGAUCUGCACUUCCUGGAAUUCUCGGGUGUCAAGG` the log2 enrichment was -0.439.

Sample 4
Target: Histone acetyltransferase KAT6A, both winged helices, GST fusion (KAT6A, Homo sapiens, UniProt Q92794, residues 1-181)
Method: protein binding microarray
Molecule type: double-stranded DNA, one strand shown
Medium: in vitro
Concentration: not given
Notes: 8-mer, flanks averaged, mean of 2 arrays, mostly near background
Baseline: not given
Direction: higher = stronger binding
Residues (chain): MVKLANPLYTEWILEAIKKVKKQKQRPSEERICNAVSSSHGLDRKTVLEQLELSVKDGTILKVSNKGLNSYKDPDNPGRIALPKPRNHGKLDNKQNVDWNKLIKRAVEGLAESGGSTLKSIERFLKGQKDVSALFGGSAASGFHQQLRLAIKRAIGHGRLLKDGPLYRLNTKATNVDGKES
For `GAGCCATC`, the E-score was -0.244.
With `GCGTAGCA` the E-score was 0.136.
With `GTGTATCA` the E-score was -0.126.
`GGGTCCCA` has an E-score of 0.0149.
`CCGGAAAA` gave an E-score of 0.182.
For `AGAGTTGA`, the E-score was -0.143.
`CGAACGCG` gave an E-score of 0.316.
`GATTCCTA` has an E-score of -0.017.
For `CAACCCCA`, the E-score was -0.145.
The E-score of `ACTGCGTG` is reported as 0.0472.
The E-score of `AGCATTTC` is reported as -0.154.
The E-score of `TCCTGACA` is reported as -0.205.
The E-score of `GAGCAGAA` is reported as -0.0116.
For `CCATCAAA`, the E-score was -0.153.
The E-score of `CCGCTAGC` is reported as 0.181.
`GTTGCGGA` has an E-score of 0.0999.
The E-score of `CGACCGGC` is reported as 0.21.
